Assay results from different studies.
Parts stem from different laboratories: compare values within a part only. Substitutions count along the parent as printed.

Block 1
Target: ABI1, truncated, D143A, DHFR fusion (Arabidopsis thaliana)
Method: DHFR PCA, deep sequencing
Medium: yeast
Setting: methotrexate growth selection, single substitutions
Added: (+)-ABA 0.39 µM
Reference: wild-type fitted maximum
Direction: higher = stronger binding
Endpoint: relative binding score
Starting sequence: PYL1, truncated, DHFR fusion (Arabidopsis thaliana); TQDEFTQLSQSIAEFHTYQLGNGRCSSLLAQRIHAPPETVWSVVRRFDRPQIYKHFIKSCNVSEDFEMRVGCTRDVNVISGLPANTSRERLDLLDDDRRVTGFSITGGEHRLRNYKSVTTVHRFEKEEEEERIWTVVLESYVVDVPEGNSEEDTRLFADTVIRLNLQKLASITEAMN; partner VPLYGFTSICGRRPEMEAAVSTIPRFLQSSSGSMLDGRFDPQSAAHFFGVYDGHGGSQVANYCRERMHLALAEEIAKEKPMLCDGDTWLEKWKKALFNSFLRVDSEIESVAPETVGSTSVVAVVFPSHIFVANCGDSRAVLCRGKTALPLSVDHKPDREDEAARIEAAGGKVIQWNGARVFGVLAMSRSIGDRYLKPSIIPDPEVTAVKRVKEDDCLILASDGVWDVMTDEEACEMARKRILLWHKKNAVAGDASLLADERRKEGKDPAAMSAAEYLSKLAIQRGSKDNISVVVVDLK
Substitution = D95N; value = 1.08%
Substitution = R69D; value = 12.4%
Substitution = V76I; value = 69.4%
Substitution = R88F; value = 31.1%
Substitution = P36N; value = 30.4%
Substitution = Q51E; value = 31.7%
Substitution = Q10Y; value = 10.4%
Substitution = V100Y; value = -6.58%
Substitution = W41P; value = 1.13%
Substitution = R88V; value = 51.7%

Block 2
Target: CCND1, cyclin fold, Cln2 fusion (human)
Method: yeast growth competition, sequencing
Medium: yeast
Setting: strong parent motif
Reference: not given
Direction: higher = stronger binding
Endpoint: normalised enrichment score
Starting sequence: RBL1 docking peptide (human); GSAKRRLFGEDPP; partner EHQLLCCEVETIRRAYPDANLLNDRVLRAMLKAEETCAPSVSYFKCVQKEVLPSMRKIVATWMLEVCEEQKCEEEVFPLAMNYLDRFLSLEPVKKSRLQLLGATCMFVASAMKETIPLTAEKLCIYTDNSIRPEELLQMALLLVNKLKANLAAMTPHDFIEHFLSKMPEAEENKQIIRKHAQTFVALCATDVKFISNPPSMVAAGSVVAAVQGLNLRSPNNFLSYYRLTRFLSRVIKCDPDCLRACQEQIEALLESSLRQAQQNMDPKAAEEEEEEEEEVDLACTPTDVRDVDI
Substitution = F8P; value = 0.469
Substitution = R5W; value = 0.233
Substitution = S2D; value = 0.564
Substitution = P13G; value = 1.32
Substitution = F8R; value = 0.00169
Substitution = D11A; value = 1.24
Substitution = G1A; value = 2.04
Substitution = G1K; value = 2.23
Substitution = R5G; value = 0.464
Substitution = E10R; value = 0.651
Substitution = L7C; value = 0.564
Substitution = P12I; value = 1.61
Substitution = F8Y; value = 0.197
Substitution = P12R; value = 1.49
Substitution = G1T; value = 2.3

Block 3
Target: UBE2E3 UBC core domain (UniProt Q969T4)
Chain of UniProt Q969T4 (whole entry, looked up): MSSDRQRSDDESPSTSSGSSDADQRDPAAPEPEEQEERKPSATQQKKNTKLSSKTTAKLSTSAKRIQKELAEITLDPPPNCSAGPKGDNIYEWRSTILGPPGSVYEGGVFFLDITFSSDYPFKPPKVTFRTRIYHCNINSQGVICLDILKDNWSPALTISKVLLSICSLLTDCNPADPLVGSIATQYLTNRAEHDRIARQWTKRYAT
Method: yeast two-hybrid
Medium: yeast
Setting: mostly zero background
Reference: not given
Direction: higher = stronger interaction
Endpoint: lacZ reporter activity
B1: RFPL3 RING domain (UniProt O75679); chain MAALFQEASSCPVCSDYLEKPMSLECGCTVCLKCINSLQKEPHGEDLLCCCCSMVSQRNKIRP
B2: TRIM34 RING domain (UniProt Q9BYJ4); chain ILLNVQEEVTCPICLELLTEPLSLDCGHSLCRACITVSNKEAVTSMGGKSSCPVCGISYSFEHLQA
B3: RNF17 RING domain (UniProt Q9BXT8); chain SQPWGAAEIQCTRCGRRVSRSSGHHCELQCGHAFCELCLLMTEECTTIICPDCEVATAVNTRQR
B4: TRIM28 RING domain (UniProt Q13263); chain GAEALELLEHCGVCRERLRPEREPRLLPCLHSACSACLGPAAPAAANSSGDGGAAGDGTVVDCPVCKQQCFSKDIVE
B5: MARCHF2 RING domain (UniProt Q9P0N8); chain RLLSTVIRALDTPSDGPFCRICHEGANGECLLSPCGCTGTLGAVHKSCLEKWLSSSNTSYCELCHTEFAVEKRPRPLTEWL
B6: RNF32 RING domain (UniProt Q9H0A6); chain VQALRRETHECSICLAPLSAAGGQRVGAGRRSREMALLSCSHVFHHACLLALEEFSVGDRPPFHACPLCRSCYQKKILEC
Sequence = MEEMEEELKCPVCGSFYREPIILPCSHNLCQACARNILVQTPESESPQSHRAAGSGVSDY (TRIM9 RING domain (UniProt Q9C026)); value = 0
Sequence = B1 (RFPL3 RING domain); value = 0
Sequence = B2 (TRIM34 RING domain); value = 0
Sequence = B3 (RNF17 RING domain); value = 0
Sequence = B4 (TRIM28 RING domain); value = 0
Sequence = B5 (MARCHF2 RING domain); value = 0
Sequence = B6 (RNF32 RING domain); value = 0
Sequence = EIKDYKARLTCPCCNMRKKDAVLTKCFHVFCFECVKTRYDTRQRKCPKCNAAFGANDFHR (RNF20 RING domain (UniProt Q5VTR2)); value = 0

Block 4
Target: RNA binding protein fox-1 homolog 2, RRM domain, GST-SBP tag (RBFOX2, Homo sapiens, UniProt O43251-10, residues 100-194)
Method: RNA Bind-n-Seq
Form: RNA
Medium: in vitro
Tested at: 365 nM
Setting: natural RNA segment, single round, ends assumed
Reference: no-protein control
Direction: higher = stronger binding
Endpoint: RBNS enrichment (R)
Constant ends, left off below: GGGAGUUCUACAGUCCGACGAUC … UGGAAUUCUCGGGUGCCAA
Target sequence (chain): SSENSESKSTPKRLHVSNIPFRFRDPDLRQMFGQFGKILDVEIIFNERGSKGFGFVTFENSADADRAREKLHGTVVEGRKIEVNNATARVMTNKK
Oligonucleotide = UUAUGAAGUUGACAAAAUCUAACUAUAUUUGGUGCAUCACAAUGGACACAGAAUGCUGCUGCUCCUCUUAAAAAUUAAAUGUGUCAUAUUAUAUUCUUUAAACUUACUGU; value = 0.514
Oligonucleotide = AAGUGAAUGUUGUCUUUGGUCACAAUGCCUUUAAGUGUAGUUGUAGCUCAGAACUUUUUUUUUAGUAUUCAUAUCUAUUUACAUCUGUGUUUCCCAACAGAAGACAACUU; value = 0.948
Oligonucleotide = CGCUUCUGCAUCCUGGAUGUGUGCUGUGUACGCUGAGCAUCACAGUAUGUUCUGUGUCUCCACUAGCCACUUCUGGGGAGUGCCUGAAGCUCUUUGACUUUGACAAGAGG; value = 0.244
Oligonucleotide = CUUUUAAAAUUUUAAGAUAGGAAAGAAAUCUAUAGAAAGUGUUCUGUUACAAAAUGUAACUGUUACCAUUGGAAAUUUCACAUGUCAAAGGAGGUUAGCCGUUAUUUACC; value = 0.362
Oligonucleotide = UUUUGACCCAUGUAAUUUACCUAAAAGUUGUAAUUGCUGACAGAGUACUGCCUUGAAUUUUGGUUUAAAACCUCUCUAGUUUCAAUGACAAGUAACAACUCAAAUAAUUC; value = 0.604
Oligonucleotide = GACCUUGCUGGUGUAGUCUUUUUAUAGGUUUUAUAAACCACAUGAGCCUAUAUCAGUCAUUUUAGUGUCUGACCUAAUGCUUGGCACUGUCAGUGCUUUGUUUAGAUGAU; value = 0.215
Oligonucleotide = UGUGCACGUGCUUCAGACUCAUUUGCGAGGGAAUGCUUUCUGUAUGAGAGGGAGACGGUAGGCCUUACCACUCAGACCUGGACGUAUAAGUGCUCACUUUUCCAACACAU; value = 1.41
Oligonucleotide = GGUUAAAUCGAUUUUGCAUCAGUCACUGAACUGUCAGCUACGUGGCAGGAACCGGACGGAAGAAUCCUCUCCAGGAGACUGGGCUUUAGUUAGUGGCUUGAUUCCCCGGC; value = 0.578

Repeated from above (block 2):
Substitution = G1A; value = 2.04
Substitution = G1K; value = 2.23
Substitution = R5G; value = 0.464
Substitution = E10R; value = 0.651
Substitution = L7C; value = 0.564
